Results of several laboratories.
Protocols differ between the studies behind these lines. ± gives the spread as reported.
MAPK8: Mitogen-activated protein kinase 8 (MAPK8, Homo sapiens, UniProt P45983)
cyp121: Mycocyclosin synthase (cyp121, Mycobacterium tuberculosis, UniProt P9WPP7)

Protein sequences, listed by entry. Tags and fused reporters are not part of them. Lines headed by an entry give the natural chain unless they say otherwise; changes in a name come on top. Residues count along the entry.
UniProt P45983, 1-384 isoform 3: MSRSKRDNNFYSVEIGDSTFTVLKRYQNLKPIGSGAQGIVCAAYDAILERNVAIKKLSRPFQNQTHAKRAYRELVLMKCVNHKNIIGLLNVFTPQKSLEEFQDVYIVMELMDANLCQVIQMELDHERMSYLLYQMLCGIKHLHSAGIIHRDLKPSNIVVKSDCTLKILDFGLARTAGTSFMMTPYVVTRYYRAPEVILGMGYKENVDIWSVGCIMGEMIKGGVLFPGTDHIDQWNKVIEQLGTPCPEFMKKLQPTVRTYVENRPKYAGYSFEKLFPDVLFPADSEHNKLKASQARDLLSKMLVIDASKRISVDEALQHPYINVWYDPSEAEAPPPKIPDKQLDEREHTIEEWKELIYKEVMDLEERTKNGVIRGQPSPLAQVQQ
UniProt P9WPP7, whole entry: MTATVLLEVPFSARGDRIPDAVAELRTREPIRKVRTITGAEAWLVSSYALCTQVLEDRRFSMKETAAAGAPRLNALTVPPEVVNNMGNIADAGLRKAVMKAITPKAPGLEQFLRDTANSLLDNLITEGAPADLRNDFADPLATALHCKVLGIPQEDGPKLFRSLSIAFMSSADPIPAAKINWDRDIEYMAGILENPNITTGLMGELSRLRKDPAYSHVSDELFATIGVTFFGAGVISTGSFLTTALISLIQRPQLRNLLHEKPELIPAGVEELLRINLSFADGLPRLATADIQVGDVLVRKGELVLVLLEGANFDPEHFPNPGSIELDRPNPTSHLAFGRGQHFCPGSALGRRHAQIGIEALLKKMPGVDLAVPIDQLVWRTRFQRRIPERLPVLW
UniProt P06730, whole entry: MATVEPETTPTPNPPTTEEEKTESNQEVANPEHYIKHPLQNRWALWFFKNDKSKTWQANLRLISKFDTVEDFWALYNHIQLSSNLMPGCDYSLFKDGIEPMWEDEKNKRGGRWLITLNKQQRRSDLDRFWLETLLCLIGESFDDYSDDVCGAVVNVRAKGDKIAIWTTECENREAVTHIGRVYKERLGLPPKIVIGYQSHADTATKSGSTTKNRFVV
UniProt Q9BUB5, 1-424 isoform 2 C190S: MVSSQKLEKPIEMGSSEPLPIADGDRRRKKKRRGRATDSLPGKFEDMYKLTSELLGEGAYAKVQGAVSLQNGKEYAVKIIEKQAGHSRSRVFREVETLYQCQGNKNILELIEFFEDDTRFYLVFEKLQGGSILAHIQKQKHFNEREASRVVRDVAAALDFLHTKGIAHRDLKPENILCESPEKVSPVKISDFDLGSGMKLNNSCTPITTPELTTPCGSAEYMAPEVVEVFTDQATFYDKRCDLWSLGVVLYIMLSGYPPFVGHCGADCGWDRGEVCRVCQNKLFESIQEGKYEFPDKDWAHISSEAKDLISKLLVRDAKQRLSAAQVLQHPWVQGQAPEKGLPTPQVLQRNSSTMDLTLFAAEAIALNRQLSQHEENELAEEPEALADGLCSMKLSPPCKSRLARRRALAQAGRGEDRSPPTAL
UniProt P9WGR1, whole entry: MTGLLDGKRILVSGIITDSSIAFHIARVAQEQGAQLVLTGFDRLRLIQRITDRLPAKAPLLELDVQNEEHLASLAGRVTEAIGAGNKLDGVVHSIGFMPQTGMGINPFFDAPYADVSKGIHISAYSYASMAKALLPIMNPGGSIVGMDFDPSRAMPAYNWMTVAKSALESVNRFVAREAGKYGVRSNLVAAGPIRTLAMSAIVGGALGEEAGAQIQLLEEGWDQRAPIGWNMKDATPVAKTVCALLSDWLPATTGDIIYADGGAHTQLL
UniProt P36544, 23-502 limits assumed: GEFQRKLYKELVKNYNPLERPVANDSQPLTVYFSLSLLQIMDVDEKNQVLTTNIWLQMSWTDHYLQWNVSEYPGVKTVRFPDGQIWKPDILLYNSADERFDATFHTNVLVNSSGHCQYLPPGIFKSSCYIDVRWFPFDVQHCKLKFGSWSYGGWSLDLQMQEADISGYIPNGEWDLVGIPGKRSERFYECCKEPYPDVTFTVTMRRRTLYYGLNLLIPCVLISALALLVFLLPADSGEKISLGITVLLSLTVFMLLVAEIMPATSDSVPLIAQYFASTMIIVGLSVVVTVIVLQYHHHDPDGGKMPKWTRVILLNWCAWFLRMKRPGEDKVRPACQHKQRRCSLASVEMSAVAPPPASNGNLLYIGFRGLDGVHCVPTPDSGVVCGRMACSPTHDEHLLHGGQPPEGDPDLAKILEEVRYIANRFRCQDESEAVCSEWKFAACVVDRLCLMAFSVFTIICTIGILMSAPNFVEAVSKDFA
UniProt Q81258, 2431-3021 limits assumed: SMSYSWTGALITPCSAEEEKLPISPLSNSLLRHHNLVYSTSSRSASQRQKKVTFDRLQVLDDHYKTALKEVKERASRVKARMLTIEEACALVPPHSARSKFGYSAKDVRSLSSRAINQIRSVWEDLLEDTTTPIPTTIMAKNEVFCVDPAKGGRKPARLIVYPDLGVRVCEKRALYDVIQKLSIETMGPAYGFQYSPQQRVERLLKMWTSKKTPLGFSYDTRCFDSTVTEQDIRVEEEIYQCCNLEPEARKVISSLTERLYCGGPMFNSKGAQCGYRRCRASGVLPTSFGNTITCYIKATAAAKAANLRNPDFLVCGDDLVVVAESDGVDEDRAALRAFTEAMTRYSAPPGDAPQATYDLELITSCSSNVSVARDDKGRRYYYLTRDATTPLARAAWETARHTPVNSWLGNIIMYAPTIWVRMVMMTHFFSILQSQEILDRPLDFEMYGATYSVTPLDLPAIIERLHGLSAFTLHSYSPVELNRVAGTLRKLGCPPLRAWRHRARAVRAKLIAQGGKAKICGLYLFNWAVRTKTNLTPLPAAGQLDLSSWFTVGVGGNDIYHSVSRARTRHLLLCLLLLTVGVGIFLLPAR
UniProt P08588, whole entry: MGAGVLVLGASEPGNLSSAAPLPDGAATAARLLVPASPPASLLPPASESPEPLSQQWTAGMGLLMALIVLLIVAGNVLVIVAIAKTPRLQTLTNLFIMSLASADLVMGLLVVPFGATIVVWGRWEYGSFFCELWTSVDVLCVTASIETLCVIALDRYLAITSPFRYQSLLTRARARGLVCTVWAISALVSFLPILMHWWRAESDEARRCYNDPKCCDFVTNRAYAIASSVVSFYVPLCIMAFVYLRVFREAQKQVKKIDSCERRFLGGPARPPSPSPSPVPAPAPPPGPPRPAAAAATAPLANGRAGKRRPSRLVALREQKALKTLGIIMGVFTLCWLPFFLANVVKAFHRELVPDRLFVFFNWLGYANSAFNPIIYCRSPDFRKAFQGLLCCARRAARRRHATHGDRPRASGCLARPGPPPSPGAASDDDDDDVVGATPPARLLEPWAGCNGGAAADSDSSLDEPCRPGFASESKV
UniProt P02769, 25-607 limits assumed: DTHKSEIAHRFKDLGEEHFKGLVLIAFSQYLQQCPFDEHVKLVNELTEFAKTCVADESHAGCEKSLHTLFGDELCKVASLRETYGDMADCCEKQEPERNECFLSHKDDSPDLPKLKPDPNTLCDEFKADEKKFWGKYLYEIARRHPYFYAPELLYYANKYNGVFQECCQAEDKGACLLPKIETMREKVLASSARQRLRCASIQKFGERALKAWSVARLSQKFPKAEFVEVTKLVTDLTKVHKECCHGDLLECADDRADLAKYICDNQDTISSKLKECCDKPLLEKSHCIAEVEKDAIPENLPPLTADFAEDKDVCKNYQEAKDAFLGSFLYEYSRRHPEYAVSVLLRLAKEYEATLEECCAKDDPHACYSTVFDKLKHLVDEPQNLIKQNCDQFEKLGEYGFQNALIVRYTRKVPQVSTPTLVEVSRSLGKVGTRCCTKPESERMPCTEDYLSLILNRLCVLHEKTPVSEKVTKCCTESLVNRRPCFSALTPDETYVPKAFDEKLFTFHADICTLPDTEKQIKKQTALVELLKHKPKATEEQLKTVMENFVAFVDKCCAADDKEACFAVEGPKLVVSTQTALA
UniProt F1M9V7, 1-920: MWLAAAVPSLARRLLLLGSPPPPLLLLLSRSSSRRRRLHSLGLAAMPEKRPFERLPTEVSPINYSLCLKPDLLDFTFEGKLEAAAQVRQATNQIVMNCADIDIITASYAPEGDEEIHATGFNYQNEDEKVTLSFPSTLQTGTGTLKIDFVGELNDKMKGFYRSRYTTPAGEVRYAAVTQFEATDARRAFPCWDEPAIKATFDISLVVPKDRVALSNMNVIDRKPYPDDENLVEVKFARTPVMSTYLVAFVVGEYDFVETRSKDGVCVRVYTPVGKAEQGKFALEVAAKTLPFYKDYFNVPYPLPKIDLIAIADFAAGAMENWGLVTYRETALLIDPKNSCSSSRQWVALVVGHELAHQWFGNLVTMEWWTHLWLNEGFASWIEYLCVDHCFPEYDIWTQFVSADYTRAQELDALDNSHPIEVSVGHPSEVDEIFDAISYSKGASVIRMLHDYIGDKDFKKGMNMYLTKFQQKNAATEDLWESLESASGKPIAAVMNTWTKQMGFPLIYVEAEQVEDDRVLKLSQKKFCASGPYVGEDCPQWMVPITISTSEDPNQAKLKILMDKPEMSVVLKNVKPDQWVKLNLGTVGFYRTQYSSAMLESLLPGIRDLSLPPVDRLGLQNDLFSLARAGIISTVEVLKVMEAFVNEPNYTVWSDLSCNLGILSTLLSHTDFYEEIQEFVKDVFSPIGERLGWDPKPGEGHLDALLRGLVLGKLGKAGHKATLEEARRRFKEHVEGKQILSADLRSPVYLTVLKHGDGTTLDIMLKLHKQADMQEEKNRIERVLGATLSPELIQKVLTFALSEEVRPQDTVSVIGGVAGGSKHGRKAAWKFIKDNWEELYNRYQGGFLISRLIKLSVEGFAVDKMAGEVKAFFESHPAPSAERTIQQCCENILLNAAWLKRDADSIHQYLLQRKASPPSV

SMILES = Cc1ccc(-c2csc(NP(=O)(O)OCC3OC(n4c[n+](Cc5ccccc5)c5c(=O)[nH]c(NC(=O)c6ccccc6)nc54)C4OC(C)(C)OC34)n2)cc1 (stereo not shown); tested on = Eukaryotic translation initiation factor 4E (EIF4E, Homo sapiens, UniProt P06730); test = measured: non-phosphorylated EIF4E protein; system = MCF7; how to read = reference: untreated; measurement = increase; value = 15%
SMILES = CN(C)c1cc(CN2CCOCC2)nc2nc(NCc3ccc(C(C)(C)C)cc3)nn12; tested on = Saccharomyces cerevisiae; system = efflux-deficient, lacking 16 ABC transporters; setting = 123 µg/mL, phosphatidic acid absent; measurement = growth inhibition; value = 100%
SMILES = COC(=O)[C@@]1(C)C=C(C(=O)Nc2cc(C(=O)Nc3ccc(Nc4nccc(-c5cccnc5)n4)cc3)ccc2C)C(=O)CC1; tested on = MAPK8; test = kinase activity, inhibitor; setting = 2.788e-05 µM, unit not given, with: 10 mM GSH; how to read = reference: DMSO; measurement = remaining activity; value = 1.03
SMILES = C=CC(=O)Nc1cc(-n2c(=O)ccc3cnc4ccc(-c5cn[nH]c5)cc4c32)ccc1C; tested on = MAP kinase-interacting serine/threonine-protein kinase 1 (MKNK1, Homo sapiens, UniProt Q9BUB5, C231S); test = enzyme activity, inhibitor, immunoprecipitated kinase; measurement = highest concentration rescued by mutant; value = > 3 µM
SMILES = Oc1cc(Cn2cc(C3CC3)nn2)ccc1Oc1ccccc1Cl; tested on = Enoyl-[acyl-carrier-protein] reductase [NADH] (inhA, Mycobacterium tuberculosis, UniProt P9WGR1); setting = 20 °C, EI* to EI; measurement = reverse isomerization rate k6; value = 0.0047 ± 0.0011 min⁻¹
SMILES = COC(=O)[C@@]1(C)C=C(C(=O)Nc2ccc(C)c(C(=O)Nc3ccc(Nc4nccc(-c5cccnc5)n4)cc3)c2)C(=O)CC1; tested on = MAPK8; test = kinase activity, inhibitor; setting = 0.06097 µM, unit not given, with: 10 mM GSH; how to read = reference: DMSO; measurement = remaining activity; value = 0.22
SMILES = C[C@@H]1NC(=O)[C@H](CCCNC(=N)N)NC(=O)[C@H](CCCNC(=N)N)NC(=O)[C@@H]2CCCN2C(=O)[C@H](CO)NC(=O)[C@@H]2CSSC[C@H](NC(=O)CN)C(=O)N[C@@H](CSSC[C@@H](C(N)=O)NC(=O)[C@H](CO)NC(=O)[C@H](CCCNC(=N)N)NC1=O)C(=O)N[C@@H](CO)C(=O)N[C@@H](Cc1c[nH]cn1)C(=O)N1CCC[C@H]1C(=O)N[C@@H](C)C(=O)N2; tested on = Neuronal acetylcholine receptor subunit alpha-7 (CHRNA7, Homo sapiens, UniProt P36544); test = ion current, antagonist; system = Xenopus oocytes; setting = 10 µM, 5 min, after washout, with: acetylcholine; how to read = reference: control; measurement = recovery of response; value = 30 ± 9%
SMILES = c1ccc(-c2ccc(C(c3ccccc3)n3ccnc3)cc2)cc1 (stereo not shown); tested on = cyp121; test = binding; measurement = Kd; value = 1400 ± 220 nM
SMILES = O=c1ccn([C@@H]2O[C@H](COP(=O)(O)OP(=O)(O)OP(=O)(O)O)[C@@H](O)[C@]2(F)Br)c(=O)[nH]1; tested on = Genome polyprotein, NS5B polymerase (Hepatitis C virus genotype 3a, UniProt Q81258); test = polymerase activity, inhibitor; system = Hepatitis C virus, genotype 3a; how to read = reference: genotype 1b; measurement = IC50 fold change; value = 2.8
SMILES = COc1ccc(CN[C@@H]2CO[C@H](C(c3ccccc3)c3ccccc3)C[C@H]2O)cc1; tested on = Beta-1 adrenergic receptor (ADRB1, Homo sapiens, UniProt P08588); test = radioligand binding, radioligand displacement; setting = 10 µM; measurement = inhibition; value = -4.7%
SMILES = COC(=O)[C@@H](CS)N1C(=O)c2ccc(N(C)C)cc2C1=O; tested on = Albumin (ALB, Bos taurus, UniProt P02769); test = probe; setting = 10 µM, probe:protein 1:3; how to read = reference: probe alone; measurement = fluorescence increase; value = 3 fold
SMILES = CSCC[C@H](NC(=O)[C@H](Cc1ccccc1)NC(=O)CNC(=O)CNC(=O)[C@@H](N)Cc1ccc(O)cc1)C(=O)O; tested on = Puromycin-sensitive aminopeptidase (Rattus norvegicus, UniProt F1M9V7); test = substrate; setting = rat enzyme, MW 100 kDa; measurement = kcat; value = 10.3 s⁻¹
SMILES = CCc1ccc2c(-c3ccc(OC)cc3)ccc(C(CC)n3ccnc3)c2n1 (stereo not shown); tested on = cyp121; test = binding; measurement = Kd; value = 1500 ± 180 nM
